# Measurements gathered from unrelated publications.
# Protocols differ between the studies behind these lines. ± marks the error that the study gave.
# SCTR: Secretin receptor (SCTR, Homo sapiens, UniProt P47872)
# Sequence of UniProt P47872 (whole entry, looked up): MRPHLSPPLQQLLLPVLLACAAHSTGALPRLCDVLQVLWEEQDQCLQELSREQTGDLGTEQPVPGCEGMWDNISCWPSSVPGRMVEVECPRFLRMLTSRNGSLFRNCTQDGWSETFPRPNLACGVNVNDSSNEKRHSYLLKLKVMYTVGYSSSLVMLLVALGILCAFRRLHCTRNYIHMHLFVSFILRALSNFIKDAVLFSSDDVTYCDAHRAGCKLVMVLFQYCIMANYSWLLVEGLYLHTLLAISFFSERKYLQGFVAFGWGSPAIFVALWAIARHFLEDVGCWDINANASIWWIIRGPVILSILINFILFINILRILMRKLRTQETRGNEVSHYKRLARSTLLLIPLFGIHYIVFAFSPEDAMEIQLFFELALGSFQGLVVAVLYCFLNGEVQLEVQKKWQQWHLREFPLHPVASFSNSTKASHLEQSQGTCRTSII
# T1: ssRNA FMR1 5' UTR CGG repeat (Homo sapiens); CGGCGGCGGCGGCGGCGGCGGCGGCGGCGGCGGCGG
# Sequence of UniProt P29994 (whole entry, looked up): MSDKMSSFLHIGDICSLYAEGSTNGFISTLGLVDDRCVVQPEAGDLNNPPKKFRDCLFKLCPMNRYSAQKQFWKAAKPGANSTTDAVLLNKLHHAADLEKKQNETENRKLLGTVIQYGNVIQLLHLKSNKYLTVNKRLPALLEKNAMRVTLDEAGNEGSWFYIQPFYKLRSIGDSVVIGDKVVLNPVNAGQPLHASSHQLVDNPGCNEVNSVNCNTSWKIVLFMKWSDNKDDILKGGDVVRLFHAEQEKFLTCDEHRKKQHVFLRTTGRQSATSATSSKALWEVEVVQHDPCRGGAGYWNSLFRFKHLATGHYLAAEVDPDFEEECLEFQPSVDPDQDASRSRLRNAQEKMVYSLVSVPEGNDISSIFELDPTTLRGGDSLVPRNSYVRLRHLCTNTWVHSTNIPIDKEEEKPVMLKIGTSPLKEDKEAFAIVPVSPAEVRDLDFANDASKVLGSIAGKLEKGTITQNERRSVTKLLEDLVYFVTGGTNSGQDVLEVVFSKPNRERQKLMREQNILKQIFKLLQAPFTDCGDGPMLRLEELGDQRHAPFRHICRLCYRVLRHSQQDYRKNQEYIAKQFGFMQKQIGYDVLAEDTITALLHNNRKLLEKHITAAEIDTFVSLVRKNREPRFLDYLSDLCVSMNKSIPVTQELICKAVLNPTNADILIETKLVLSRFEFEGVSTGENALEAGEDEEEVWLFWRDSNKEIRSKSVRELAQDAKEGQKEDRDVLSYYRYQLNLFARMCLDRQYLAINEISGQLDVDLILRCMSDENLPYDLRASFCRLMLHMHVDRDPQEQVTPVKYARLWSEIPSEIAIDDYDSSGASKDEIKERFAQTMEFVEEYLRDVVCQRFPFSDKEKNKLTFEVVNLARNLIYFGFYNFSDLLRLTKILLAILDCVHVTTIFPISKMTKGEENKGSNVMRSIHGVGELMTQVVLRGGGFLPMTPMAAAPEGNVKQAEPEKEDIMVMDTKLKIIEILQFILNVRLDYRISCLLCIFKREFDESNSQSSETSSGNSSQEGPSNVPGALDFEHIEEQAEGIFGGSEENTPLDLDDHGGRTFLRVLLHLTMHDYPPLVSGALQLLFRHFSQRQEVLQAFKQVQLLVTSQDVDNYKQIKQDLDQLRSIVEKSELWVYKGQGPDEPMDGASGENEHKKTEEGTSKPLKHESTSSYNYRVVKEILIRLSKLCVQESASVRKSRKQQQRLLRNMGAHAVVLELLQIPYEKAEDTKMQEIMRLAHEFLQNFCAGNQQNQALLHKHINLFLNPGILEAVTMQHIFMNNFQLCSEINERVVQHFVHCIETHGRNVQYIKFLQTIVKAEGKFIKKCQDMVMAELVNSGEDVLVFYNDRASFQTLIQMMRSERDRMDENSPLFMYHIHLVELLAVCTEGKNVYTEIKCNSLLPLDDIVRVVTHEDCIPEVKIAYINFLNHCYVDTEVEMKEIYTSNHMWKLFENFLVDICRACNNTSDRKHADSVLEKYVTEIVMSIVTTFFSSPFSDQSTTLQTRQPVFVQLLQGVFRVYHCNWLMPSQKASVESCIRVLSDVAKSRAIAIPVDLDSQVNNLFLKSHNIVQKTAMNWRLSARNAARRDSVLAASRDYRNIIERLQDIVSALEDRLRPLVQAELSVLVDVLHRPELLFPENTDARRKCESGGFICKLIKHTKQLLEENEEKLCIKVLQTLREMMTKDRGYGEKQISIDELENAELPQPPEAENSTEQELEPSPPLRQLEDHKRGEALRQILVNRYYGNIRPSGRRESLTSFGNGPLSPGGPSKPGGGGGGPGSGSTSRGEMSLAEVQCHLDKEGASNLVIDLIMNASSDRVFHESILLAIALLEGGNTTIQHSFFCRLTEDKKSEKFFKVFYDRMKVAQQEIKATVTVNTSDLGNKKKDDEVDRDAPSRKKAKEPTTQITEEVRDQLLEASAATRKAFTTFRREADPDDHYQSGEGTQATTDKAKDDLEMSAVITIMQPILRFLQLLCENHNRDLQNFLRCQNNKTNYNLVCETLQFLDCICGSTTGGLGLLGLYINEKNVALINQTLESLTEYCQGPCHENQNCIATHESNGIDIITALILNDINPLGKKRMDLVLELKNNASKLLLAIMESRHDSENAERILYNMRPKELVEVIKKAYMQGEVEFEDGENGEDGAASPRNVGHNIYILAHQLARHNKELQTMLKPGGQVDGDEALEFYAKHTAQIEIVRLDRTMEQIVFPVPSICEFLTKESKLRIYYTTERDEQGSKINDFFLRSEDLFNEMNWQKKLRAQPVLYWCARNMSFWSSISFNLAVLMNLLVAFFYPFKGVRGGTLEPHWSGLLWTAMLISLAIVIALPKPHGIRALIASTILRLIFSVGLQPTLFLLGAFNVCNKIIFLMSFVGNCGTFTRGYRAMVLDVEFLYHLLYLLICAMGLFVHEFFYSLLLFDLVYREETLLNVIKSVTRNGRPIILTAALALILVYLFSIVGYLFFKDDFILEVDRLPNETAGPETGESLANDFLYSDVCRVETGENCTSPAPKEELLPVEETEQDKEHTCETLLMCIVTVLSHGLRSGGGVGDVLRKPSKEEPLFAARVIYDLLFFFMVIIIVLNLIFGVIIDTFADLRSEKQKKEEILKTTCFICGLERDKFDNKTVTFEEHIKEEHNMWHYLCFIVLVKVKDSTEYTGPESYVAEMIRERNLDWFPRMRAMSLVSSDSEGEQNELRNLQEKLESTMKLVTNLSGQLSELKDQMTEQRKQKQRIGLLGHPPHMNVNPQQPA
# Sequence of UniProt Q96RI1 (whole entry, looked up): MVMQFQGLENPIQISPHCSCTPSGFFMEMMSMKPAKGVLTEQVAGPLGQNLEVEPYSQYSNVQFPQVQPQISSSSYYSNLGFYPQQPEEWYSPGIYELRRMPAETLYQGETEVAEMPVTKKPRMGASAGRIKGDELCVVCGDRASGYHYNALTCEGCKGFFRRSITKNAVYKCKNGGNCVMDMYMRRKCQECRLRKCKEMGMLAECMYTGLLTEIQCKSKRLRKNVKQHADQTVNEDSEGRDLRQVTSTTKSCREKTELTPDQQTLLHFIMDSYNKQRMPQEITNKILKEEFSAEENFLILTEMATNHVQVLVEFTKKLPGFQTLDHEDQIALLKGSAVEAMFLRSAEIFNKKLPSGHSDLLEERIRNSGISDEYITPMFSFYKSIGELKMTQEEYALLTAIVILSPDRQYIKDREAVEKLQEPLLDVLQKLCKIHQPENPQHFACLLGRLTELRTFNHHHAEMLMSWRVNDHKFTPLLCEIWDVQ
# Sequence of UniProt Q14191 (whole entry, looked up): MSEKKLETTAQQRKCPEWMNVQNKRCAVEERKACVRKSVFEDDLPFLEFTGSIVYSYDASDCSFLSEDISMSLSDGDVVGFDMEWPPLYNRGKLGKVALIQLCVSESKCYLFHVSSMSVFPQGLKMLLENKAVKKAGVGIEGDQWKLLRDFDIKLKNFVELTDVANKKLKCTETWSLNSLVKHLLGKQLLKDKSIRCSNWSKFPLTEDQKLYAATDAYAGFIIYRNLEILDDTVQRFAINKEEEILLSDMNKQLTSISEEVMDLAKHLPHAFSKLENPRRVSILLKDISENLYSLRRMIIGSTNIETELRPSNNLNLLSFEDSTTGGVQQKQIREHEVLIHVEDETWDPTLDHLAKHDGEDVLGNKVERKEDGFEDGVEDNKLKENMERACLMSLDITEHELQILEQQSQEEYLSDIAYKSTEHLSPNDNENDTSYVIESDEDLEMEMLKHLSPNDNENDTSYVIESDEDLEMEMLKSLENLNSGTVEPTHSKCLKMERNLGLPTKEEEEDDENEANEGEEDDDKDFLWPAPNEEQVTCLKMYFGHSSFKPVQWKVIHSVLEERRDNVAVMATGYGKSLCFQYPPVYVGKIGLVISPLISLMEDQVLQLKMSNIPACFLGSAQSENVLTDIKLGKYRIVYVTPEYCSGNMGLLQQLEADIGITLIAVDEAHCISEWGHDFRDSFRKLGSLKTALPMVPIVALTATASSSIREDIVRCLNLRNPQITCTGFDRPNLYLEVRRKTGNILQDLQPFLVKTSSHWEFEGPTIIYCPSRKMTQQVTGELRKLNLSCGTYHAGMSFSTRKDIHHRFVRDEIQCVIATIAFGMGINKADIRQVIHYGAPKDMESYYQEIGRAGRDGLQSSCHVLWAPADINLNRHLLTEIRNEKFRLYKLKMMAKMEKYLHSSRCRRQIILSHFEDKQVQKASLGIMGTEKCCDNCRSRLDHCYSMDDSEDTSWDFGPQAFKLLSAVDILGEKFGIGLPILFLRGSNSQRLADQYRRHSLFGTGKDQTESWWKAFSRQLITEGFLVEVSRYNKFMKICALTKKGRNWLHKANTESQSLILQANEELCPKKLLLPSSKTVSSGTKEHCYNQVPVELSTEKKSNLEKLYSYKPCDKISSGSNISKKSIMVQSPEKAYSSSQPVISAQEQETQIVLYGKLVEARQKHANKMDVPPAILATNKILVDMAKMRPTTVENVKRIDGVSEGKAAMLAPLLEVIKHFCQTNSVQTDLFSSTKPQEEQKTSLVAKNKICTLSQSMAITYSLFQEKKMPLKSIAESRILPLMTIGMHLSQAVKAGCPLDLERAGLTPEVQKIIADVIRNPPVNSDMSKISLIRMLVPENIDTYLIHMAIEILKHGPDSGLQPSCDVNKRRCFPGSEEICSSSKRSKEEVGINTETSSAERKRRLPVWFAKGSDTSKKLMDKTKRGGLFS
SMILES,target,test,system,conditions,how to read,endpoint,value
O=C(CSc1nc(-c2ccccc2)cc(C(F)(F)F)n1)Nc1ccccc1,SCTR,"positive allosteric modulator, item: cAMP",SCTR-overexpressing CHO-K1,"concentration not given, with: 3-peptide mix EC10-EC20",,activity class,inactive
CCN(CC)C(=O)c1ccc(O)c(OC)c1,"Heat shock protein HSP 90-alpha, N-terminal domain (HSP90AA1, Homo sapiens, UniProt P07900)","binding, ligand-observed NMR titration",,ligand to protein ratio 548,,bound ligand fraction,0.16 mol %
CCC1(O)CCCN(C(=O)c2cccc(C#N)c2)C1 (centres unmarked),"DNA dC->dU-editing enzyme APOBEC-3A (Homo sapiens, UniProt P31941)","binding, 1H CPMG NMR",,,,signal attenuation,14.9 ± 12.5%
COc1ccc(-c2cc(C(F)(F)F)nc(S(=O)(=O)CCC(=O)Nc3ccc(C)cc3)n2)cc1,"WRN (Homo sapiens, UniProt Q14191)","enzyme activity, inhibitor",,,,kinact,0.00056 s⁻¹
Nc1nc2c(ncn2C2CC(O)C(COP(=O)(O)OP(=O)(O)C(F)P(=O)(O)O)O2)c(=O)[nH]1 (mixture of isomers),"DNA polymerase beta (POLB, Homo sapiens, UniProt P06746, I260M)","nucleotide incorporation rate, substrate, single-turnover kinetics",single-nucleotide gapped DNA,"37 °C, I260M, misincorporation, with: dGTP opposite template A",,kpol,0.007 ± 0.001 s⁻¹
N=C(N)NCCC[C@H](NC(=O)[C@H](CCCNC(=N)N)NC(=O)[C@H](Cc1ccc(O)cc1)NC(=O)[C@H](CCCCN)NC(=O)[C@H](Cc1ccc(O)cc1)NC(=O)[C@H](CCCCN)NC(=O)[C@H](CCCCN)NC(=O)[C@@H](N)CCCNC(=N)N)C(=O)N[C@@H](CCCCN)C(N)=O,integrin alphaM beta2 (human),"ligand binding, inhibitor, flow cytometry",human neutrophils,"concentration not given, 1 h, 37 °C, integrin clustering inhibitor, with: Alexa 488-labelled plasminogen","baseline: no inhibitor, lower means less binding",bound plasminogen fluorescence,285 ± 35 MFI
CCCN(CC(=O)N(CCC)CC(=O)N(CC(N)=O)Cc1cn(CCCNC(=O)CCCOc2cccc(-c3nc4ccc(-c5nc6ccc(N7CCN(C)CC7)cc6[nH]5)cc4[nH]3)c2)nn1)C(=O)CNCc1cn(CCCNC(=O)CCCOc2cccc(-c3nc4ccc(-c5nc6ccc(N7CCN(C)CC7)cc6[nH]5)cc4[nH]3)c2)nn1,"T1, ssRNA FMR1 5' UTR CGG repeat (Homo sapiens)","protein displacement, competitor, TR-FRET",,,,IC50,17 µM
O=P(O)(O)O[C@@H]1[C@@H](O)[C@H](O)[C@H](O)[C@H](O)[C@H]1OP(=O)(O)O,"Itpr1 (Rattus norvegicus, UniProt P29994)",Ca2+ release,"DT40-IP3R1, permeabilized",,,Hill coefficient,1.4 ± 0.2
CC[C@H](C)[C@H](NC(=O)[C@@H](NC(=O)[C@H](CCCCN)NC(=O)[C@@H](NC(=O)[C@@H]1CCCN1[C@@H]1CN(C(=O)[C@@H](NC(=O)[C@@H](NC(=O)[C@@H](NC(=O)[C@@H](NC(=O)[C@@H](NC(=O)[C@@H](N)CCCCN)C(C)C)C(C)C)C(C)C)[C@@H](C)CC)[C@@H](C)O)CC[C@H]1NS(=O)(=O)c1ccc(C)cc1)[C@@H](C)O)C(C)C)C(=O)N[C@@H](CC(C)C)C(=O)N[C@@H](Cc1c[nH]cn1)C(N)=O,"MAPT (Homo sapiens, UniProt P10636)","electron microscopy, item: wild-type tau",,"96 h, 37 °C, compound to tau ratio 5/1 with tau 10 µM",,width of rod-like aggregates,15.7 ± 0.2 nm
Cc1cn([C@H]2C[C@H](O)[C@@H](COP(=O)(O)OP(=O)(O)C(Cl)(Cl)P(=O)(O)O)O2)c(=O)[nH]c1=O,"DNA polymerase beta (POLB, Homo sapiens, UniProt P06746)","nucleotide incorporation rate, substrate, single-turnover kinetics",single-nucleotide gapped DNA,"37 °C, wild type, correct incorporation, with: dTTP opposite template A",,kpol,0.66 ± 0.09 s⁻¹
CCCCCCc1ccc(Oc2ccccc2N)c(O)c1,"Enoyl-[acyl-carrier-protein] reductase [NADPH] FabI (Staphylococcus aureus, UniProt Q6GI75)","enzyme activity, inhibitor, progress curve kinetics, item: NADPH",,,,Ki,0.00012 µM
COc1ccc(-c2cc(C(F)(F)F)nc(SCC(=O)N(C)c3ccccc3)n2)cc1,SCTR,"efficacy cooperativity, allosteric modulator",cells overexpressing SCTR,with: secretin(3-27),,cooperativity factor beta,30
CN(C1COC1)C(C)(C)/C=C(\C#N)C(=O)N1CCC[C@H]1Cn1nc(-c2ccc(Oc3ccccc3)cc2F)c2c(N)ncnc21,"BTK (Homo sapiens, UniProt Q06187)",,,,,residence time,10000 ± 1260 min
CC(CCC(=O)NCC[S+](C)[O-])C1CCC2C3C(O)CC4CC(O)CCC4(C)C3CC(O)C12C (centres unmarked),"Bile acid receptor (NR1H4, Homo sapiens, UniProt Q96RI1)","receptor activation, antagonist",,"concentration not given, with: GW4064",,activity,inactive
